Results pooled from the literature.
Protocols differ between the studies behind these lines. ± gives the spread as reported. Non-standard residues stand in square brackets, D forms with d. No end group written: not given here. *: point of attachment.
CTDNEP1: CTD nuclear envelope phosphatase 1 (CTDNEP1, Homo sapiens, UniProt O95476)
Sequence of UniProt O95476 (whole entry, looked up): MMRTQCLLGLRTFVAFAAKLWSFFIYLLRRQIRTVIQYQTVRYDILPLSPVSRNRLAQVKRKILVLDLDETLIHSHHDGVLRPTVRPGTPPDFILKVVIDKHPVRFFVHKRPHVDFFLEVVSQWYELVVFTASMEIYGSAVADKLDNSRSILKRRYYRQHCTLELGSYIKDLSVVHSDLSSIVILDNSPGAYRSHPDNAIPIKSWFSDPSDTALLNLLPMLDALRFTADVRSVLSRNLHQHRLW
PIM1: Serine/threonine-protein kinase pim-1 (PIM1, Homo sapiens, UniProt P11309)
Sequence of UniProt P11309 (whole entry, looked up): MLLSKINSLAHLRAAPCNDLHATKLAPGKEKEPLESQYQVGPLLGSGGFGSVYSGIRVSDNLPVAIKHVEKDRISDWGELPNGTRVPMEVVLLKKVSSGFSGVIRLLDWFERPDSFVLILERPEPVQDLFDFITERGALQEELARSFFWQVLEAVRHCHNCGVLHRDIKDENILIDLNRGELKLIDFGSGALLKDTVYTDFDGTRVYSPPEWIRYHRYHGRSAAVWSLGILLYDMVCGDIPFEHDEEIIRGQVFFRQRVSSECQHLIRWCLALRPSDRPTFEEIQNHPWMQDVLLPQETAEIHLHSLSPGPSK
ALPI: Intestinal-type alkaline phosphatase (ALPI, Bos taurus, UniProt P19111)
Sequence of UniProt P19111 (whole entry, looked up): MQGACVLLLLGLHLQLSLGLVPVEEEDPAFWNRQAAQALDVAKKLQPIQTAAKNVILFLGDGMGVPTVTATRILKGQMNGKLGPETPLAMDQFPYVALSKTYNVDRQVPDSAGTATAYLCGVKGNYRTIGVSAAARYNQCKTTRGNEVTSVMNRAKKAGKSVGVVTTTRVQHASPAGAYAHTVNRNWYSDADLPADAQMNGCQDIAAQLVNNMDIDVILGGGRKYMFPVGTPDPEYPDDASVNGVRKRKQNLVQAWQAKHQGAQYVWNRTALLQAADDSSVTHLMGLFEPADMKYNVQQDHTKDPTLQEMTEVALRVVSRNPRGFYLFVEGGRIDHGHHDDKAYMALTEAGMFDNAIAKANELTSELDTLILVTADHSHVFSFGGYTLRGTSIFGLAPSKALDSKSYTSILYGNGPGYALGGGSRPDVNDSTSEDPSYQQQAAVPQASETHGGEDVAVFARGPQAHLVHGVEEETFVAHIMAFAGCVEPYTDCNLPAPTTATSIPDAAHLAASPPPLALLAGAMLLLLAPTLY
Sequence of UniProt P53853 (whole entry, looked up): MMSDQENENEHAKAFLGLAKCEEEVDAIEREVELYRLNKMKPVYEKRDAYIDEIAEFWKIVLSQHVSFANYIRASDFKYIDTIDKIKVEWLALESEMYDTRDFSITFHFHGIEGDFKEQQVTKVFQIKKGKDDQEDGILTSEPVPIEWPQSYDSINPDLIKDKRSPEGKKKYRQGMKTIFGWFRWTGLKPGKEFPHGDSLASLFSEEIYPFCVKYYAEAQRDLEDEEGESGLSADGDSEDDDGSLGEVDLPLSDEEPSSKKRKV
Sequence of UniProt Q07794 (whole entry, looked up): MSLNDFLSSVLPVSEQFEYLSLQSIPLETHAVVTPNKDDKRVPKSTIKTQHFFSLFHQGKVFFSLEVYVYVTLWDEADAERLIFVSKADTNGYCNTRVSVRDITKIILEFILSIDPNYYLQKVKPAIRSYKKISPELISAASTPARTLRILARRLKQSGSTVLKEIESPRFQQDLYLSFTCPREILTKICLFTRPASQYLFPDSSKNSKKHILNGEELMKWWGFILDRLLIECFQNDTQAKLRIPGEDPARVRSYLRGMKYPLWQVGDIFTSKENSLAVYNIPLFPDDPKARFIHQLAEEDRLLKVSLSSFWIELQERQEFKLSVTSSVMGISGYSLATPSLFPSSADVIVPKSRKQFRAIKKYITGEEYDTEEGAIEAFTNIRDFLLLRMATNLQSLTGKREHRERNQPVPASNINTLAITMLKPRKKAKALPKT
Sequence of UniProt P00968 (whole entry, looked up): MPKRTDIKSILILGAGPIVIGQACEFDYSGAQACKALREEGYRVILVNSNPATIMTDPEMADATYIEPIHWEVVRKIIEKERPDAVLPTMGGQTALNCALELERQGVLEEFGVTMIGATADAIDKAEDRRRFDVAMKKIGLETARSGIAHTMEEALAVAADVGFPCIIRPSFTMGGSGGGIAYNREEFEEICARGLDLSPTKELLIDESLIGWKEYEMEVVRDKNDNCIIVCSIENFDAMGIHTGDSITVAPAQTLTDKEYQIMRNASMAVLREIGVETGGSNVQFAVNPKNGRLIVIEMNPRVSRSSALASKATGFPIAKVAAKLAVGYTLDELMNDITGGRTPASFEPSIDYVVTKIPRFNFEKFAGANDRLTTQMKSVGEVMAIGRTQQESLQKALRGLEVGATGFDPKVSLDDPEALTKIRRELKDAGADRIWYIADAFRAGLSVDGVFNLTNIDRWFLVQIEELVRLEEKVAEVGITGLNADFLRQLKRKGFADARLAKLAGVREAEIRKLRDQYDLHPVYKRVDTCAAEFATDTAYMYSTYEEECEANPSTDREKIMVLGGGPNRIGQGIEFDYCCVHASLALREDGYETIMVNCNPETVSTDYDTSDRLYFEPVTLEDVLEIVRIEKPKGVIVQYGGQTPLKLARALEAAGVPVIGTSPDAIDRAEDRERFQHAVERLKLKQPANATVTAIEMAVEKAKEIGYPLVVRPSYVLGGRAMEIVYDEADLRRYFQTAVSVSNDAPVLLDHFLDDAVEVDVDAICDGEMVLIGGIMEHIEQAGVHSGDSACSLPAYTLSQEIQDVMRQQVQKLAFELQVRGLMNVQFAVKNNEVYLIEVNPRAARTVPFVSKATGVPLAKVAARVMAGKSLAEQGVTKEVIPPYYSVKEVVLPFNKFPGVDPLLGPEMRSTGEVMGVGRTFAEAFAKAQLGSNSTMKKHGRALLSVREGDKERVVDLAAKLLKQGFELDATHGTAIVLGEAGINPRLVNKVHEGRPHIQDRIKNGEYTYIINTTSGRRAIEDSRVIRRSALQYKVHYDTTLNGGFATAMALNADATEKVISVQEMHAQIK

With `CC(C)C[C@H](N)C(=O)Nc1ccc2ccccc2c1` the Km was 22 µM (cathepsin H (Bubalus bubalis lung); substrate, 2-naphthylamine release; pH 6.5, 37 °C).
The Km of `SGSRP[pS]TP (phospho-Ser; pS = N[C@@H](COP(=O)(O)O)C(=O)O)` is reported as 32 ± 6 µM (CTDNEP1; substrate, MESG-coupled phosphate release; 25 °C).
For `CCCCCCCCCC(=O)O`, the Km was 703 ± 549 µM (Marasmius rotula unspecific peroxygenase; substrate, GC-MS; with: H2O2).
The Km of `C/C1=C2/N[C@H]([C@H](CC(N)=O)[C@@]2(C)CCC(=O)NC[C@@H](C)OP(=O)(O)O[C@H]2[C@@H](O)[C@@H](n3cnc4cc(C)c(C)cc43)O[C@@H]2CO)[C@]2(C)N=C(/C(C)=C3N=C(/C=C4N=C1[C@@H](CCC(N)=O)C\4(C)C)[C@@H](CCC(N)=O)[C@]\3(C)CC(N)=O)[C@@H](CCC(N)=O)[C@]2(C)CC(N)=O.[Co]` is reported as 0.13 ± 0.01 µM (cobA (Limosilactobacillus reuteri, UniProt Q50EJ2); enzyme activity, substrate; anoxic, Ti(III) citrate reduced, with: ATP).
`AYRHPTGMYY` has a Km of over 800 µM (PIM1; substrate, coupled enzyme; peptide; pH 7.4, room temperature, with: 1 mM ATP, 20 mM MgCl2).
`N=C(N)NCCCC(NC(=O)c1ccccc1)C(=O)Nc1ccc2ccccc2c1` (racemic) gave a Km of 4320 µM (cathepsin H, Bubalus bubalis lung; substrate; pH 6.5, 37 °C, racemic DL substrate).
For `Cbz-Gly-Pro-pNA (N-Cbz, C-pNA; Cbz = O=C(OCc1ccccc1)*; pNA = O=[N+]([O-])c1ccc(N*)cc1)`, the Km was 810 µM (Aeromonas punctata prolyl endopeptidase; substrate; pH 8, 34 °C).
The Km of `C[C@@H]1O[C@@H](Oc2ccc([N+](=O)[O-])cc2)[C@@H](O)[C@H](O)[C@@H]1O` is reported as 1110 ± 750 µM (alpha-L-fucosidase (Paenibacillus sp. 3179); substrate; pH 7.4, 50 °C, rough estimate, not saturated).
For `Nc1ncnc2c1ncn2[C@@H]1O[C@H](COP(=O)(O)OP(=O)(O)OP(=O)(O)O)[C@@H](O)[C@H]1O`, the Km was 0.9 ± 0.2 µM (ALPI; pH 8).
`CC(=O)SCCNC(=O)CCNC(=O)[C@H](O)C(C)(C)COP(=O)(O)OP(=O)(O)OC[C@H]1O[C@@H](n2cnc3c(N)ncnc32)[C@H](O)[C@@H]1OP(=O)(O)O` has a Km of 0.3 ± 0.1 µM (VPS75/RTT109 (Saccharomyces cerevisiae, UniProt P53853+Q07794); pH 7.5).
With `[Na+].[Na+].[Na+].[O]=[V]([O-])([O-])[O-]` the Km was 0.57 ± 0.09 µM (ALPI; 2.28 µM, with: DiFMUP substrate).
For `PIL[pS]EGASR (phospho-Ser4; pS = N[C@@H](COP(=O)(O)O)C(=O)O)`, the Km was 260 ± 50 µM (CTDNEP1; substrate, MESG-coupled phosphate release; 25 °C).
`Nc1ncnc2c1ncn2[C@H]1C[C@H](O)[C@@H](COP(=O)(O)OP(=O)(O)OP(=O)(O)O)O1` has a Km of 10 µM (Bacillus phage GA-1 DNA polymerase; TP-primed initiation, substrate; 30 °C, with: chimeric TP N-G primer, GA-1 TP-DNA).
`Nc1ncnc2c1ncn2[C@@H]1O[C@H](COP(=O)(O)OP(=O)(O)OP(=O)(O)O)[C@@H](O)[C@H]1O` has a Km of 48000 ± 2000 µM (Threonine-phosphate decarboxylase (Methanosarcina mazei, UniProt Q8PVB1); enzyme activity, substrate; 25 °C, oxic purification, possibly oxidised, with: L-threonine saturating, MgCl2 5 mM).
With `RYRDPTGMYY` the Km was 1300 ± 53 µM (PIM1; substrate, coupled enzyme; peptide; pH 7.4, room temperature, with: 1 mM ATP, 20 mM MgCl2).
`Nc1ncnc2c1ncn2[C@@H]1O[C@H](COP(=O)(O)OP(=O)(O)O)[C@@H](O)[C@H]1O` gave a Km of 130 ± 30 µM (carB, nucleotide binding sites (Escherichia coli, UniProt P00968); ATP synthesis, substrate, coupled enzyme; pH 7.6, with: 1.0 mM carbamoyl phosphate, 10 mM ornithine).
For `Ac-RYRHPTGMYY-NH2 (N-acetyl, C-amide)`, the Km was 16 ± 2 µM (PIM1; substrate, coupled enzyme; peptide; pH 7.4, room temperature, with: 1 mM ATP, 20 mM MgCl2).
`CC(=O)N[C@H]1[C@@H](OP(=O)(O)OP(=O)(O)OC[C@H]2O[C@@H](n3ccc(=O)[nH]c3=O)[C@H](O)[C@@H]2O)O[C@H](CO)[C@@H](O)[C@@H]1O` gave a Km of about 110 µM (heparosan synthase PmHS-G, Pasteurella multocida; GlcNAc-transferase activity, substrate; pH 7.2, 30 °C, with: UDP-[3H]GlcA 1 mM, 12.5-kDa heparosan acceptor).

Some of these lines once more:
For `PIL[pS]EGASR (phospho-Ser4; pS = N[C@@H](COP(=O)(O)O)C(=O)O)`, the Km was 260 ± 50 µM (CTDNEP1; substrate, MESG-coupled phosphate release; 25 °C).
For `Ac-RYRHPTGMYY-NH2 (N-acetyl, C-amide)`, the Km was 16 ± 2 µM (PIM1; substrate, coupled enzyme; peptide; pH 7.4, room temperature, with: 1 mM ATP, 20 mM MgCl2).
